Measurements of several laboratories.
Compare with care: the assays were run in different laboratories. ± marks the error that the study gave.
UniProt Q6JQN1, sequence (whole entry, looked up): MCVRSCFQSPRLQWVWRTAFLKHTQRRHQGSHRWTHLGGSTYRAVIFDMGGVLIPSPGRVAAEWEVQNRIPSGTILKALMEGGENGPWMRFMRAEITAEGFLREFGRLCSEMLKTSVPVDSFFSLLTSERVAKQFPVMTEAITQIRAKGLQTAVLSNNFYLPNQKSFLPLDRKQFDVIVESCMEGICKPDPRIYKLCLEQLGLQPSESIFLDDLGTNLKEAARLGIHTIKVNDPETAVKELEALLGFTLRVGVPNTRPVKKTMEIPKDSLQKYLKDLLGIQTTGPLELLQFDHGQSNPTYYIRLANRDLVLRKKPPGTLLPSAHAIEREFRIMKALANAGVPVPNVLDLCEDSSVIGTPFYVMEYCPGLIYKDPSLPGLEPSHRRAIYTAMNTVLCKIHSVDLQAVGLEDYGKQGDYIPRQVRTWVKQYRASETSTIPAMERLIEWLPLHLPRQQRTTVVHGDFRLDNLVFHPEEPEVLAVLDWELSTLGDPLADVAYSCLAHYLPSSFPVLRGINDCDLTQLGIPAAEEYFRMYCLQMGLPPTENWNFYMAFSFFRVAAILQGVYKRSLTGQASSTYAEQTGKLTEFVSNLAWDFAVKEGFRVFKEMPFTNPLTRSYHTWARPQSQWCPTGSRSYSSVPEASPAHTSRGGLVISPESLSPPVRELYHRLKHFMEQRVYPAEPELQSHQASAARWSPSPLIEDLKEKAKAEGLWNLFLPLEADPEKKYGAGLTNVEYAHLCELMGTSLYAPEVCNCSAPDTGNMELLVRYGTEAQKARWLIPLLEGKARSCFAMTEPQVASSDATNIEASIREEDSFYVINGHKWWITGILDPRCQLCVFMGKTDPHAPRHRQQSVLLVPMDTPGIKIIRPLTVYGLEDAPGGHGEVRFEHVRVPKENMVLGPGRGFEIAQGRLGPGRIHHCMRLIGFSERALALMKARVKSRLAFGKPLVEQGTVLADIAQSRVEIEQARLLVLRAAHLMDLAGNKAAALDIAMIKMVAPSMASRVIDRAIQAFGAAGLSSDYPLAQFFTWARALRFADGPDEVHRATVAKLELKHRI

C=CC(=O)Nc1cc(Nc2nccc(Nc3cc(Cl)c(F)cc3C(C)(C)O)n2)c(OC)cc1N1CC[C@@H](N(C)C)C1 — patients with pneumonia (human patients; oral, 400 mg, treatment-emergent adverse events): 20%
C[C@H]1CN(c2n[nH]c3nc(N[C@H]4CC[C@H](NS(=O)(=O)CCC(F)(F)F)CC4)ncc23)CCO1 — relative abundance (Acyl-CoA dehydrogenase family member 10 (ACAD10, Homo sapiens, UniProt Q6JQN1); inhibitor, Kinobeads competition profiling; 0.032 µM; reference: vehicle): 1.21
CO[C@H]1C[C@@H]2CC[C@@H](C)[C@@](O)(O2)C(=O)C(=O)N2CCCC[C@H]2C(=O)O[C@H]([C@H](C)C[C@@H]2CC[C@@H](OC(=O)NCCOCCOCCOCCOCCOCCOCCOCCOCCC(=O)N3CCc4cc(Cn5nc(-c6ccc7oc(N)nc7c6)c6c(N)ncnc65)ccc4C3)[C@H](OC)C2)C[C@@H](O)[C@H](C)/C=C(\C)[C@@H](O)[C@@H](OC)C(=O)[C@H](C)C[C@H](C)/C=C/C=C/C=C/1C — AE leading to dose interruption (patients with advanced solid tumours; intravenous, 16 mg weekly, grade 3 or higher): 75%
CCc1ccc(CC/C=C/c2ccc3c(c2)C(=O)CC3)cc1 — MCHC (Sprague-Dawley rat, male; oral, 30 mg/kg/day, 14 days): 311 g/L
C[C@@H](O)[C@H](NC(=O)[C@@H]1CSSC[C@H](NC(=O)[C@@H](Cc2ccccc2)NC(=O)CN2CCN(CC(=O)[O-])CCN(CC(=O)[O-])CCN(CC(=O)[O-])CC2)C(=O)N[C@@H](Cc2ccc(O)cc2)C(=O)N[C@H](Cc2c[nH]c3ccccc23)C(=O)N[C@@H](CCCCN)C(=O)N[C@@H]([C@@H](C)O)C(=O)N1)C(=O)O.[177Lu+3] — retention (MEC1 treated with 200 µM zebularine; gamma counter; 60 min efflux after 2 h loading): 36.1%
CC(C)(C(=O)NC1C2CC3CC1CC(C(N)=O)(C3)C2)N1CCN(c2ccc(C(F)(F)F)cn2)CC1 (stereo not shown) — dose-normalised free AUC(0-24) (human, plasma; 1 mg once daily, 5 days, median): 0.887 (ng·h/mL)/mg
O=C(Nc1ccccc1)C1CCN(C(=O)Oc2cccnc2)CC1 — change in Tense-Relaxed score (Bond-Lader VAS; healthy women; oral, 20 mg; reference: pre-dose baseline, direction not given): 11
CCCCCCCCCCC[C@H](OC1OC[C@H](O)[C@@H](O)[C@@H]1O)[C@H](O)[C@H](O)C[C@@H]1CC(=O)N[C@H](CO)C(=O)N[C@H]([C@H](O)c2ccc(O)cc2)C(=O)N[C@H](CCN)C(=O)NCC(=O)N[C@@H](CC(N)=O)C(=O)N[C@@H](CO)C(=O)N[C@@H]([C@H](O)C(N)=O)C(=O)N1 (stereo partly shown) — measured concentration (LC-MS/MS; rabbit plasma, sodium citrate; 800 ng/mL, 6 freeze-thaw cycles): 747 ng/mL
O=C(O)C[C@H](NC(=O)[C@H](CC(=O)O)NC(=O)[C@H](CC(=O)O)NC(=O)[C@H](CC(=O)O)NC(=O)[C@H](CC(=O)O)NC(=O)[C@H](CC(=O)O)NC(=O)[C@H](CC(=O)O)NC(=O)[C@H](CC(=O)O)NC(=O)[C@H](CC(=O)O)NC(=O)[C@H](CC(=O)O)NC(=O)[C@H](CC(=O)O)NC(=O)[C@H](CCCCNC(=O)c1ccc(C(=O)NCCOCCOB2BBBBBB3BBBB3B2)cc1)NC(=O)CN1CCN(CC(=O)O)CCN(CC(=O)O)CCN(CC(=O)O)CC1)C(=O)O [gallium-67 labelled] — tissue uptake (ddY male mice, large intestine; intravenous, 37 kBq, 3 h): 0.34 %ID/g
Cc1cc(C)c(CNC(=O)c2cc(Cl)c3c(c2C)O[C@@](C)([C@H]2CC[C@H](N(C)C)CC2)O3)c(=O)[nH]1 — incidence of INR increased (relapsed/refractory NHL patients; dose not given, trial, safety set, treatment-related TEAE grade 5): 0%
CNC(=O)c1cc(Oc2ccc(NC(=O)Nc3ccc(Cl)c(C(F)(F)F)c3)cc2)ccn1 — MTD (patients with advanced solid tumours; once daily, days 1-21, every 3 weeks, with: gemcitabine, carboplatin): 400 mg
CN1CC[C@@H](c2c(O)cc(O)c3c(=O)cc(-c4ccc(C(F)(F)F)cc4Cl)oc23)[C@@H]1CO — patients with adverse event (item: Hypotension; B-cell malignancies or AML; oral, 100 mg, continuous dosing): 12.5%
C[C@]1(CO)Cc2ncn(-c3ccc(C#N)c(Cl)c3)c2C(=O)O1 — drug-related AE incidence (human; concentration not given, European multiple ascending dose): 11.7%
CC[C@H](C)[C@@H]1NC(=O)[C@@H]2CCCN2C(=O)[C@H](CC(C)C)NC(=O)[C@H](CC(C)C)NC(=O)CNC(=O)[C@@H](NC(=O)[C@@H](NC(=O)[C@H](CC(=O)O)NC(=O)CNC(=O)[C@@H](NC(=O)[C@H](C)NC(=O)CNC(=O)[C@H](CCCCN)NC(=O)[C@H](CC(C)C)NC(=O)[C@H](CC(C)C)NC(=O)[C@H](CCCCN)NC(=O)CNC(=O)[C@@H](NC(=O)[C@@H](N)CC(C)C)C(C)C)C(C)C)C(C)C)CSSC[C@@H](C(=O)O)NC1=O — log2 fold change (RNA-seq, item: Syk mRNA; mouse traumatic brain injury, frontal cortex and hippocampus; dose not given; reference: TBI plus compound vs TBI): -2.17
Cn1cncc1-c1c(F)cncc1NC(=O)c1c(N)nn2cc(F)cnc12 — grade ≥3 hyponatraemia incidence (human patients; oral, 130 mg once daily): 11%
CN(N=O)c1ccc(F)cc1 — revertant colonies per plate (Escherichia coli; mutagenicity, Ames plate incorporation; WP2 uvrA pKM101; 150 µg/plate, 3 d, without S9, methanol): 114 ± 15
CCCc1cc(O)c(C/C=C(\C)CCC=C(C)C)c(O)c1C(=O)O — plasma concentration (LC-MS/MS; Scn1a+/− mice, plasma; intraperitoneal, 30 mg/kg, after hyperthermia protocol): 181 ± 18 µg/mL
COc1cc2c(Oc3ccc4[nH]c(C)cc4c3F)ccnc2cc1OCC1(N)CC1 — grade 1 or 2 Epistaxis (paediatric recurrent refractory sarcoma; 8 mg/kg): 33.3%
CN(CC(C)(C)C)N=O — revertant colonies per plate (Salmonella typhimurium; mutagenicity, Ames plate incorporation; TA1535; 1500 µg/plate, without S9, methanol): 25.7 ± 7

A few entries again:
C[C@@H](O)[C@H](NC(=O)[C@@H]1CSSC[C@H](NC(=O)[C@@H](Cc2ccccc2)NC(=O)CN2CCN(CC(=O)[O-])CCN(CC(=O)[O-])CCN(CC(=O)[O-])CC2)C(=O)N[C@@H](Cc2ccc(O)cc2)C(=O)N[C@H](Cc2c[nH]c3ccccc23)C(=O)N[C@@H](CCCCN)C(=O)N[C@@H]([C@@H](C)O)C(=O)N1)C(=O)O.[177Lu+3] — retention (MEC1 treated with 200 µM zebularine; gamma counter; 60 min efflux after 2 h loading): 36.1%
